Measurements from different studies.
Each numbered part is a random draw from the data of one study; scales do not carry over between parts.
Sequence of UniProt P51812 (whole entry, looked up): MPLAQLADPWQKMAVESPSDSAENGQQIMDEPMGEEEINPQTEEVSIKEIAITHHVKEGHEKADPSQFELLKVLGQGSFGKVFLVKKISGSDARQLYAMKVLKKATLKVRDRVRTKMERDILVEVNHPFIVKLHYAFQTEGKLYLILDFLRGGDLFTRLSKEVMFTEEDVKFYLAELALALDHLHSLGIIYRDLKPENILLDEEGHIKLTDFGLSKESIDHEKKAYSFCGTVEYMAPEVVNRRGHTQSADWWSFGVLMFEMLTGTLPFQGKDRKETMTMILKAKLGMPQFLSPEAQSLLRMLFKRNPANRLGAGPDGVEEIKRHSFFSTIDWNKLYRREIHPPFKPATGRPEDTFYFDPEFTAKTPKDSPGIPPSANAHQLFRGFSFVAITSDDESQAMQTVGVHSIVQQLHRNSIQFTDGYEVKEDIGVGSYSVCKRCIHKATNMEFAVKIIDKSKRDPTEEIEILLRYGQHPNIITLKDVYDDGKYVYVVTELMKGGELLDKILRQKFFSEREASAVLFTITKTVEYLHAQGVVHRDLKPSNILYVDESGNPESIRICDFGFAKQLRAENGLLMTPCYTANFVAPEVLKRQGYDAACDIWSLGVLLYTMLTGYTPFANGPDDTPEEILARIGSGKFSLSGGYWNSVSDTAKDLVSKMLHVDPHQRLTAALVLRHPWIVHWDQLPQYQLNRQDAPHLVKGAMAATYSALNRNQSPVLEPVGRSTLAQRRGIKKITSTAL
Sequence of UniProt P49674 (whole entry, looked up): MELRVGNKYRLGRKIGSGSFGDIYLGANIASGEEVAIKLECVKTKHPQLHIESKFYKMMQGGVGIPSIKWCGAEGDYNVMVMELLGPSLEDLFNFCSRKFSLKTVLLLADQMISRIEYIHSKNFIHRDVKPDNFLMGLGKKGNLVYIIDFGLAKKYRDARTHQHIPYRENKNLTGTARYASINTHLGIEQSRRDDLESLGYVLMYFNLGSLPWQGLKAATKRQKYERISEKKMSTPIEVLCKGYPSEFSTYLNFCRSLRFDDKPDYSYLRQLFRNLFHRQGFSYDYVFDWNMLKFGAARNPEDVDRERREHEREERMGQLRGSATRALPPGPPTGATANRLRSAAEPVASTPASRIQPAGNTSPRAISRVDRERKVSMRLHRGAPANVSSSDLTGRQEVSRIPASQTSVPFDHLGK
Sequence of UniProt P49760 (whole entry, looked up): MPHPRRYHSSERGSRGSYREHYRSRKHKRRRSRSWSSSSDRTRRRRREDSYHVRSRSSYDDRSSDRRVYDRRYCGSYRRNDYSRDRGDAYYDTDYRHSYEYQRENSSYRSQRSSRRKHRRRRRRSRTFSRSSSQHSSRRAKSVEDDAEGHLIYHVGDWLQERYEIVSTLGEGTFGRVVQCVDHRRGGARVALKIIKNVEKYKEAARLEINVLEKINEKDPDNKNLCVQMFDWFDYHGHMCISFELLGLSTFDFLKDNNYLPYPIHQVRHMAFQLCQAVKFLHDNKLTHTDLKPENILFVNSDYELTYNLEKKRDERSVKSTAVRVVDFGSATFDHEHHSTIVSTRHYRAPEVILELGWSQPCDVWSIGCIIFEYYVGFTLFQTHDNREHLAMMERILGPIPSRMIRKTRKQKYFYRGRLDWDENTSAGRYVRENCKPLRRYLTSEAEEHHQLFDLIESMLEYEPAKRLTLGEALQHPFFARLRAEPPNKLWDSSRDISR
Sequence of UniProt P29323 (whole entry, looked up): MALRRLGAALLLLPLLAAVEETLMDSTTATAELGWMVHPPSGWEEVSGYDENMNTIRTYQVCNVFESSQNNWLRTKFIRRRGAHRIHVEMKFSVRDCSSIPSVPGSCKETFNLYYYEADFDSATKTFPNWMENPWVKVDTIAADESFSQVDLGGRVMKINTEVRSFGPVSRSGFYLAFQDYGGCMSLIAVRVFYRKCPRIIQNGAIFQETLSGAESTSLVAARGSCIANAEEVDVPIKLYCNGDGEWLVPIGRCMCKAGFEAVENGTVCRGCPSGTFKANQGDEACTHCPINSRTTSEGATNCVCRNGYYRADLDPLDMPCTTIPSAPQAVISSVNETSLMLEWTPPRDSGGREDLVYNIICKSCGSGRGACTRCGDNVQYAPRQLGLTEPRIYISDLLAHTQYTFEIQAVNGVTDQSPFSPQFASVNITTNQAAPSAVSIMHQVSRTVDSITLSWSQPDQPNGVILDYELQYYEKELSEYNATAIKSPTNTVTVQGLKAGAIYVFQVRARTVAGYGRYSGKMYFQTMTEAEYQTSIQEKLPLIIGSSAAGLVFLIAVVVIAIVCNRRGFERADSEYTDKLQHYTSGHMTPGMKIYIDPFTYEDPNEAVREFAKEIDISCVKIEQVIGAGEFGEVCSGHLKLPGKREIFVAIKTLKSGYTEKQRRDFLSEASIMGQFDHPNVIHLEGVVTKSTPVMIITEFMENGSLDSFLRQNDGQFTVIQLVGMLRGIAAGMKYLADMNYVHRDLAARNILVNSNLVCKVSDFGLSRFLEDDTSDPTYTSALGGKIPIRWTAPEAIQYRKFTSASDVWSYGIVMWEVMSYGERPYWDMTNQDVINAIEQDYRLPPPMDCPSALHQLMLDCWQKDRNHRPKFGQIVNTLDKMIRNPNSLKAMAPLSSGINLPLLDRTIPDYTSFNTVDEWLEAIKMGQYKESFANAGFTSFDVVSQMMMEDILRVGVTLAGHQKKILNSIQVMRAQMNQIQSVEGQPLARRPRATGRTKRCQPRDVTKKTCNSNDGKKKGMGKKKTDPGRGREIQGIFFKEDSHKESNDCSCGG
Sequence of UniProt Q8IW41 (whole entry, looked up): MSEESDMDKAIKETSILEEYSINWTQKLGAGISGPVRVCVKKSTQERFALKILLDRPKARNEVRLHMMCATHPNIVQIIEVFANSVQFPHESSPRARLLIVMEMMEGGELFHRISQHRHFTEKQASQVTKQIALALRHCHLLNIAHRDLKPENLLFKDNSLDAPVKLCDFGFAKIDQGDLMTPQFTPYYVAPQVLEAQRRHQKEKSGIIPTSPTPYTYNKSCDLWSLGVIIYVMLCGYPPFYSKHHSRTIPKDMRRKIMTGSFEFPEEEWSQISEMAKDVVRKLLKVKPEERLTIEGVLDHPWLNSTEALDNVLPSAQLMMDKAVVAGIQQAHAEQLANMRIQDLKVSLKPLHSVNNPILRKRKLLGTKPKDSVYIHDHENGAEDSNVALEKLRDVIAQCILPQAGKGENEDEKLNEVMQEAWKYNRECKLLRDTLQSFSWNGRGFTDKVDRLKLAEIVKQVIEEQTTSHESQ
Sequence of UniProt P09619 (whole entry, looked up): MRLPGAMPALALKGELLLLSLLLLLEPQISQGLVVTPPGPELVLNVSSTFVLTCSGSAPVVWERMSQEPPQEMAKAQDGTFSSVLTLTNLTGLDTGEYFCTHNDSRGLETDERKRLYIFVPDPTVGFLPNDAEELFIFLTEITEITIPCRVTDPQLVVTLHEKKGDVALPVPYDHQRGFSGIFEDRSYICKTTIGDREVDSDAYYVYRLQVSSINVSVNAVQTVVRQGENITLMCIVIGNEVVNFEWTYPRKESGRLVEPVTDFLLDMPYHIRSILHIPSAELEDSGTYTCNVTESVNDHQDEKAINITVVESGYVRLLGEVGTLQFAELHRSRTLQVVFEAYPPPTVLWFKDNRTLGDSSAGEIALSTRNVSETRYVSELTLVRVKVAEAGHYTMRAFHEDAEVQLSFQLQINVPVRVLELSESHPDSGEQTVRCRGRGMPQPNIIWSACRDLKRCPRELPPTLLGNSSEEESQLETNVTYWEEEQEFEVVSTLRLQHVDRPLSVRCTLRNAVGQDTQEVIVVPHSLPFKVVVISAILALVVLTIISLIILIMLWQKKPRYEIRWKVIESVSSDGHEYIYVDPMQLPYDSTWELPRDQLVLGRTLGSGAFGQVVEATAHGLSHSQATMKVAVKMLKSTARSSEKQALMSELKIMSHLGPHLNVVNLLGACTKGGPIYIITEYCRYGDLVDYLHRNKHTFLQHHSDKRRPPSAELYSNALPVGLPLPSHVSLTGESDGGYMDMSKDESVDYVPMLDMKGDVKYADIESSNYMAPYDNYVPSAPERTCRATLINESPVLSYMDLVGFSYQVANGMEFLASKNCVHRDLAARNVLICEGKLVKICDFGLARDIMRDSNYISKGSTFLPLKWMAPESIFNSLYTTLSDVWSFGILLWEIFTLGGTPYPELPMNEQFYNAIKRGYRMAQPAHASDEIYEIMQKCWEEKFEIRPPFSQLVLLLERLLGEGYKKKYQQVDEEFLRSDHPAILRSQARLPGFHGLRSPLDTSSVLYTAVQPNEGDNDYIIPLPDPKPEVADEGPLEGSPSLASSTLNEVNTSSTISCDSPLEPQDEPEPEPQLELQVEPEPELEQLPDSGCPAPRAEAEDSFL

Set 1 — observed: enzyme activity; mode: inhibitor; concentration: 10 µM; quantity: inhibition
Target: Calcium/calmodulin-dependent protein kinase type II subunit alpha (CAMK2A, Homo sapiens, UniProt Q9UQM7)
Sequence of UniProt Q9UQM7 (whole entry, looked up): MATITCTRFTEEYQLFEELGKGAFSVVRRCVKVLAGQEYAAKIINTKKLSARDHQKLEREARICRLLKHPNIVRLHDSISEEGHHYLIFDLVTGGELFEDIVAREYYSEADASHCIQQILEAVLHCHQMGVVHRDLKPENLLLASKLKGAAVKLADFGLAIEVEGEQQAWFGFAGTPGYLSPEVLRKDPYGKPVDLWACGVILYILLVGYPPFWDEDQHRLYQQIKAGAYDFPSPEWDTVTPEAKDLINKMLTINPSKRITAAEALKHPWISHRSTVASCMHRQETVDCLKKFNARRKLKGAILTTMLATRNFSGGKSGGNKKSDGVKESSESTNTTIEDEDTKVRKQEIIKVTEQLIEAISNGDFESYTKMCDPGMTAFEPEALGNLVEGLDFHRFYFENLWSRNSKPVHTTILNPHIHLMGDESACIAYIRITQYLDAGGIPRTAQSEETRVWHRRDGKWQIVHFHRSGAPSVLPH
C1CSCSC1: -38%
O[C@H](c1ccccc1)[C@H](O)c1ccccc1: -28%
COc1cc2ccc(=O)oc2c(O[C@@H]2O[C@H](CO)[C@@H](O)[C@H](O)[C@H]2O)c1O: -5%
C/C1=C\CC[C@H](C)C(=O)C[C@@H](C(C)C)C(=O)C1: -8%
Cc1nc2sccn2c(=O)c1CCN1CCC(=C(c2ccc(F)cc2)c2ccc(F)cc2)CC1: -11%
CC(C)=CCC[C@](C)(O)[C@H]1CC[C@]2(C)[C@@H]1[C@H](O)C[C@@H]1[C@@]3(C)CC[C@H](O[C@@H]4O[C@H](CO)[C@@H](O)[C@H](O)[C@H]4O[C@@H]4O[C@H](CO)[C@@H](O)[C@H](O)[C@H]4O)C(C)(C)[C@@H]3CC[C@]12C: -14%
CS(=O)(=O)Nc1cc2occ(NC=O)c(=O)c2cc1Oc1ccccc1: -4%
C=C(C)[C@@H]1CC=C(/C=N/O)CC1: -10%
O=[N+]([O-])c1ccc(O)c(O)c1: 24%
CCCCCCCCCCCCCCCc1cccc(O)c1C(=O)O: -31%
NC(=O)NC(NC(N)=O)C(=O)O: -11%
O=C(O)c1cccc(O)c1: -22%

Set 2 — cell line: HaCaT; concentration: 100 µM; time: 36 h; quantity: viability
CC(=O)c1ccc(O)c(C(=O)O)c1: 49.5%
Cc1ncc(C[n+]2csc(CCO)c2C)c(N)n1: 94.6%
CC(C)NCC(O)c1cc(O)cc(O)c1 (stereo not shown): 79.6%
Cc1nc2c([nH]1)-c1ccccc1N(C(=O)c1ccc(NC(=O)c3ccccc3-c3ccccc3)cc1)CC2: 14%
CCCCOc1cc(C(=O)OCCN(CC)CC)ccc1N: 52%
CC(C)=CCC/C(C)=C/C=C/C(C)=C/C=C/C(C)=C/C=C/C=C(C)/C=C/C=C(C)/C=C/C=C(\C)CCC=C(C)C: 114%
CC1(C)S[C@@H]2[C@H](NC(=O)COc3ccccc3)C(=O)N2[C@H]1C(=O)O: 90.5%
COc1ccc([C@@H]2Sc3ccccc3N(CCN(C)C)C(=O)[C@@H]2OC(C)=O)cc1: 40.7%
COC(=O)c1ccccc1O: 87%
Cn1c([N+](=O)[O-])cnc1COC(N)=O: 94.8%
NC(N)=Nc1nc(CSCCC(N)=NS(N)(=O)=O)cs1: 94.1%
CCS(=O)(=O)CCn1c([N+](=O)[O-])cnc1C: 93%
Cc1ncc([N+](=O)[O-])n1C: 80.3%
Cc1c(N(C)CS(=O)(=O)O)c(=O)n(-c2ccccc2)n1C: 102%
CN1C(C(=O)Nc2ccccn2)=C(O)c2ccccc2S1(=O)=O: 55.6%
O=C1c2cccc3c2[C@H](CCC3)CN1[C@@H]1CN2CCC1CC2: 20.8%
CC(C)(C)CC(C)(C)c1ccc(O)c(Cc2ccc(Cl)cc2Cl)c1: 4.96%
O=C1NCC2(CCN(CCc3ccccc3)CC2)O1: 60.4%
CC[C@H](C)[C@H](N)C1=N[C@H](C(=O)N[C@@H](CC(C)C)C(=O)N[C@H](CCC(=O)O)C(=O)N[C@H](C(=O)N[C@H]2CCCCNC(=O)[C@H](CC(N)=O)NC(=O)[C@@H](CC(=O)O)NC(=O)[C@H](Cc3cnc[nH]3)NC(=O)[C@@H](Cc3ccccc3)NC(=O)[C@H]([C@@H](C)CC)NC(=O)[C@@H](CCCN)NC2=O)[C@@H](C)CC)CS1: 86.1%
Nc1c2ccccc2nc2ccccc12: 4.48%

Set 3 — concentration: 1 µM; quantity: remaining binding
Structure (SMILES): CCc1ccccc1C(=O)Nc1n[nH]c2c(C)c(F)c(C3C(C#N)=C(C)N(C)C(C)=C3C#N)cc12
Tyrosine-protein kinase ABL1, phosphorylated (ABL1, Homo sapiens, UniProt P00519); cell-free assay, competition with immobilised ligand: 88%
Ribosomal protein S6 kinase alpha-3, C-terminal kinase domain (RPS6KA3, Homo sapiens, UniProt P51812); cell-free assay, competition with immobilised ligand: 100%
MAPKAPK5 (Homo sapiens, UniProt Q8IW41); cell-free assay, competition with immobilised ligand: 100%
CDK2 (Homo sapiens, UniProt P24941); cell-free assay, competition with immobilised ligand: 100%
PKN2 (Homo sapiens, UniProt Q16513); cell-free assay, competition with immobilised ligand: 100%
Aurora kinase A (AURKA, Homo sapiens, UniProt O14965); cell-free assay, competition with immobilised ligand: 51%
WNK4 (Homo sapiens, UniProt Q96J92); cell-free assay, competition with immobilised ligand: 94%
PRKG2 (Homo sapiens, UniProt Q13237); cell-free assay, competition with immobilised ligand: 100%
EIF2AK2 (Homo sapiens, UniProt P19525); cell-free assay, competition with immobilised ligand: 100%
MKNK1 (Homo sapiens, UniProt Q9BUB5); cell-free assay, competition with immobilised ligand: 100%
PDGFRB (Homo sapiens, UniProt P09619); cell-free assay, competition with immobilised ligand: 82%
SIK1 (Homo sapiens, UniProt P57059); competition binding: 66%
CLK2 (Homo sapiens, UniProt P49760); cell-free assay, competition with immobilised ligand: 55%
MYLK2 (Homo sapiens, UniProt Q9H1R3); binding, competition with immobilised ligand: 80%
EPHB2 (Homo sapiens, UniProt P29323); cell-free assay, competition with immobilised ligand: 76%
CSNK1E (Homo sapiens, UniProt P49674); cell-free assay, competition with immobilised ligand: 100%
EGFR (Homo sapiens, UniProt P00533, A750P/del747-749); cell-free assay, competition with immobilised ligand: 100%
MAP2K6 (Homo sapiens, UniProt P52564); cell-free assay, competition with immobilised ligand: 98%
Myosin-IIIa (MYO3A, Homo sapiens, UniProt Q8NEV4); binding, competition with immobilised ligand: 68%
CAMK2B (Homo sapiens, UniProt Q13554); cell-free assay, competition with immobilised ligand: 73%
CAMK2G (Homo sapiens, UniProt Q13555); binding, competition with immobilised ligand: 79%
KIT (Homo sapiens, UniProt P10721, D816H); cell-free assay, competition with immobilised ligand: 100%
STK39 (Homo sapiens, UniProt Q9UEW8); cell-free assay, competition with immobilised ligand: 100%
PRKX (Homo sapiens, UniProt P51817); cell-free assay, competition with immobilised ligand: 88%
PIP4K2B (Homo sapiens, UniProt P78356); cell-free assay, competition with immobilised ligand: 91%

Set 4 — observed: enzyme activity; mode: inhibitor; concentration: 0.5 µM; reference: control; quantity: remaining activity
Compound: NC(=O)c1ccc(-c2nc(-c3ccc4c(c3)OCCO4)c(-c3ccccn3)[nH]2)cc1
CLK1 (Homo sapiens, UniProt P49759): 105%
RPS6KA3 (Homo sapiens, UniProt P51812): 88.8%
IGF1R (Homo sapiens, UniProt P08069): 90.1%
EPHA2 (Homo sapiens, UniProt P29317): 96.6%
CSNK1D (Homo sapiens, UniProt P48730): 40.9%
FLT1 (Homo sapiens, UniProt P17948): 89.4%
PAK1 (Homo sapiens, UniProt Q13153): 95%
PRKCQ (Homo sapiens, UniProt Q04759): 89.7%
PRKCZ (Homo sapiens, UniProt Q05513): 104%
Cyclin-dependent kinase 2, with cyclin E (CDK2, Homo sapiens, UniProt P24941): 93.5%
CAMKK1 (Homo sapiens, UniProt Q8N5S9): 114%
TYRO3 (Homo sapiens, UniProt Q06418): 106%
SGK2 (Homo sapiens, UniProt Q9HBY8): 98.6%
CAMK1 (Homo sapiens, UniProt Q14012): 96.9%
CLK2 (Homo sapiens, UniProt P49760): 103%
MAP3K20 (Homo sapiens, UniProt Q9NYL2): 96.4%
SIK2 (Homo sapiens, UniProt Q9H0K1): 107%
PAK6 (Homo sapiens, UniProt Q9NQU5): 98.2%
SRPK1 (Homo sapiens, UniProt Q96SB4): 95.5%
CSNK1E (Homo sapiens, UniProt P49674): 46.9%
JAK1 (Homo sapiens, UniProt P23458): 98.1%
TEC (Homo sapiens, UniProt P42680): 95.8%

A few entries again (set 4):
RPS6KA3 (Homo sapiens, UniProt P51812): 88.8%
SRPK1 (Homo sapiens, UniProt Q96SB4): 95.5%
CLK2 (Homo sapiens, UniProt P49760): 103%
Cyclin-dependent kinase 2, with cyclin E (CDK2, Homo sapiens, UniProt P24941): 93.5%
TEC (Homo sapiens, UniProt P42680): 95.8%
CLK1 (Homo sapiens, UniProt P49759): 105%
SGK2 (Homo sapiens, UniProt Q9HBY8): 98.6%
PRKCZ (Homo sapiens, UniProt Q05513): 104%
MAP3K20 (Homo sapiens, UniProt Q9NYL2): 96.4%
IGF1R (Homo sapiens, UniProt P08069): 90.1%
TYRO3 (Homo sapiens, UniProt Q06418): 106%
